Results collected from several papers.
Parts stem from different laboratories: compare values within a part only. Substitutions count along the parent as printed.

Sample 1
Target: ABI1, truncated, D143A, DHFR fusion (Arabidopsis thaliana)
Method: DHFR PCA, deep sequencing
Medium: yeast
Notes: methotrexate growth selection, single substitutions
With: (+)-ABA 4.8 µM
Baseline: wild-type fitted maximum
Direction: higher = stronger binding
Parent: PYL1, truncated, DHFR fusion (Arabidopsis thaliana); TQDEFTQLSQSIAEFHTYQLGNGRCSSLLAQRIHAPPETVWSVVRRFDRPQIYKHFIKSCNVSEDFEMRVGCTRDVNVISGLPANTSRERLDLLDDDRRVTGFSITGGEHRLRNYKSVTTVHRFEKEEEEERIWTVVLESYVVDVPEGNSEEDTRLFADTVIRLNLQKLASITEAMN; partner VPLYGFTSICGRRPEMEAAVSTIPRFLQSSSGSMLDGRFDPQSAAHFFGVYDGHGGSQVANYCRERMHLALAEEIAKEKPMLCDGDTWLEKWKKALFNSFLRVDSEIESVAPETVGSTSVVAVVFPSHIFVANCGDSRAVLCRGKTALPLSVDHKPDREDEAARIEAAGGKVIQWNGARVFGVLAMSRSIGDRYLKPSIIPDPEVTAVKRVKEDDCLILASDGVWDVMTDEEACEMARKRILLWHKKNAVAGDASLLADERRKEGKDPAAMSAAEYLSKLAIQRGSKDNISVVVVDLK
Substitution	relative binding score [%]
T73W	55.2
M68R	12
A175M	71.7
E125V	82.6
L8G	3.65
R132T	93.6
S9T	68.4
R99T	-5.9

Sample 2
Target: Histone acetyltransferase KAT6A, winged helix 1, GST fusion (KAT6A, Homo sapiens, UniProt Q92794, residues 1-85)
Method: protein binding microarray
Form: double-stranded DNA, one strand shown
Medium: in vitro
Tested at: not given
Notes: 8-mer, flanks averaged, mean of 2 arrays, mostly near background
Baseline: not given
Direction: higher = stronger binding
Target sequence (chain): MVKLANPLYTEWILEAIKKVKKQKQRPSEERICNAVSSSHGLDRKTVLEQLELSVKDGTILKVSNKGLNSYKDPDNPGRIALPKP
Sequence	E-score
ACACTTGG	-0.22
ACGTCGAG	-0.242
AATACCAA	0.0118
TAACAGCA	-0.0225
CGTACCGC	0.382
GACATAGA	-0.0941
AGTGAACG	-0.115

Sample 3
Target: CCNE1, cyclin fold, Cln2 fusion (human)
Method: yeast growth competition, sequencing
Medium: yeast
Notes: weak parent motif
Baseline: not given
Direction: higher = stronger binding
Parent: E2F7 docking peptide (human); SSAQRRLEIPSGG
Substitution	normalised enrichment score
R5A	0.35
R6A	-0.389
I9L	0.166
G13A	0.314

Mixed results
Molecule	target	test	test system	setting	scale	endpoint	value
PhoQ, residues 284 288 289 292 302 303 ASVMEA	PhoP, residues 12 14 15 18 19 NQGLL (Escherichia coli, UniProt P23836)	Sort-seq, item: YFP reporter	E. coli	PhoQ-PhoP variant library, with: 10 µM Mg2+	baseline: high Mg2+ state, higher = stronger signaling	fold induction	4.21

For quick reference, copied from above (sample 3):
Substitution	normalised enrichment score
I9L	0.166
G13A	0.314
